Published values collected from several papers.
Protocols differ between the studies behind these lines. Values joined by “and” are separate records of one study, mostly repeats; a detail may differ. Numbers after ± are the reported error.

SMILES	cell line	test	setting	scale	viability
N=C(N)NCCC[C@@H]1NC(=O)[C@H](CCCNC(=N)N)NC(=O)[C@H](CCCNC(=N)N)NC(=O)[C@H](Cc2ccc3ccccc3c2)NC(=O)[C@H](Cc2ccc3ccccc3c2)NC(=O)[C@H](Cc2ccc3ccccc3c2)NC(=O)[C@H](CCCNC(=N)N)NC1=O	MRC5	cell growth or viability, MTS	150 µg/mL, 24 h	–	30 to 35%
COc1cc(N2CCN(C(=O)C3CCCN3)CC2)ccc1Nc1ncc(Cl)c(Nc2ccccc2P(C)(C)=O)n1 (stereo not drawn)	NCI-H3122	cell growth or viability, CCK-8	0.1 µM, 48 h	–	24% and 26%
N=C(N)NCCC[C@@H]1NC(=O)[C@@H](CCCNC(=N)N)NC(=O)[C@H](CCCNC(=N)N)NC(=O)[C@@H](C(c2ccccc2)c2ccccc2)NC(=O)[C@@H](C(c2ccccc2)c2ccccc2)NC(=O)[C@@H](C(c2ccccc2)c2ccccc2)NC(=O)[C@@H](CCCNC(=N)N)NC1=O	MRC5	cell growth or viability, MTS	150 µg/mL, 24 h	–	61 to 70%
[BH3-][P+]1(c2ccccc2)CCCCC1	HaCaT	trypan blue	IC50, 72 h	–	96.7%
Cc1ccc(-n2cc(CSc3nc4ccccc4n3Cc3cn(-c4ccc(C)cc4)nn3)nn2)cc1	HEK293	MTT	3.91 ppm	–	93.9%
N=C(N)NCCC[C@@H]1NC(=O)[C@H](CCCNC(=N)N)NC(=O)[C@@H](Cc2ccc3ccccc3c2)NC(=O)[C@H](Cc2c[nH]c3ccccc23)NC(=O)[C@@H](Cc2ccc3ccccc3c2)NC(=O)[C@@H](CCCNC(=N)N)NC(=O)[C@@H](CCCNC(=N)N)NC1=O	MRC5	cell growth or viability, MTS	200 µg/mL, 24 h	–	61 to 65%
CN1CCCNC(=O)c2cccc(c2)C(=O)NCCCN(C)CCCNc2cccc3c2C(=O)c2cccc(c2C3=O)NCCC1	HeLa	cell growth or viability, CCK-8	5 µM, 48 h	–	5.38%
C/C=C(/C)C(=O)OC[C@H]1[C@@H](Cc2ccc(C(C)(C)C)cc2)CO[C@@H]1c1ccc(OC)c(OC)c1	HEK293/NF-κB-luc	CellTracker Green CMFDA	20 µM, 4.5 h, serum-free medium	relative to: stimulated untreated cells	68 ± 17%
CC1(C)CC(=O)C2=C(C1)Oc1ccc3ccccc3c1C2c1c[nH]c2ccccc12 (stereo not drawn)	3T3-L1 mature adipocytes	MTT	IC20, 6 days, lipolysis conditions	relative to: untreated	104%
C/C=C(/C)C(=O)OC[C@H]1[C@@H](Cc2ccc(C(C)(C)C)cc2)CO[C@@H]1c1ccc(F)cc1	HEK293/NF-κB-luc	CellTracker Green CMFDA	20 µM, 4.5 h, serum-free medium	relative to: stimulated untreated cells	95 ± 10%
O=CCNCCOn1c(=O)n(OCCNCCO)c(=O)n(OCCNCCOn2c(=O)n(OCCNCCO)c(=O)n(OCCNCCO)c2=O)c1=O	HUVEC	cell growth or viability, MTT	50 µg/mL, 24 h	–	60.5%
COc1cc(/C=C/C=C2\SC(=S)NC2=O)ccc1O	HeLa	CellTiter-Glo	2.5 µM, 24 h, unit not given	relative to: untreated	0.994 and 0.999
CN1CCCN(c2cnc3c(cc(C(=O)NCc4ccc(Cl)cc4)c(=O)n3CC(=O)N3CC(C)(F)C3)n2)C1=O	MRC5	cell growth or viability, CCK-8	40 µM	–	100%
C/C=C(/C)C(=O)OC[C@H]1[C@@H](Cc2ccc(OC)c(OC)c2)CO[C@@H]1c1ccc(OC)c(OC)c1	HEK293/NF-κB-luc	CellTracker Green CMFDA	20 µM, 4.5 h, serum-free medium	relative to: stimulated untreated cells	87 ± 3%
N=C(N)NCCC[C@@H]1NC(=O)[C@H](CCCNC(=N)N)NC(=O)[C@@H](CCCNC(=N)N)NC(=O)[C@@H](CCCNC(=N)N)NC(=O)[C@@H](C(c2ccccc2)c2ccccc2)NC(=O)[C@H](Cc2c[nH]c3ccccc23)NC(=O)[C@@H](C(c2ccccc2)c2ccccc2)NC1=O	MRC5	cell growth or viability, MTS	200 µg/mL, 24 h	–	76 to 81%

For quick reference, copied from above:
SMILES	cell line	test	setting	scale	viability
COc1cc(/C=C/C=C2\SC(=S)NC2=O)ccc1O	HeLa	CellTiter-Glo	2.5 µM, 24 h, unit not given	relative to: untreated	0.994 and 0.999
